Measured values gathered from unrelated publications.
Values joined by “and” are separate records of one study, mostly repeats; a detail may differ. ± marks the error that the study gave.

With `O=C(N[C@@H](Cc1ccc(OCCCCC2CCNCC2)cc1)C(=O)O)c1nc2ccccc2o1.O=C(O)C(F)(F)F` the ADP-induced aggregation was 0.31 and 0.619 and 0.561 and 0.302 (platelets; impedance aggregometry; human, diluted whole blood; 100 nM, with: ADP; baseline: untreated).
For `O=C(C[Se]C(=O)c1ccccc1Nc1ccccc1)Nc1cccc(C(F)(F)F)c1`, the TGI was 4.29 µM (NCI60 breast subpanel mean; cell growth).
For `Cc1cccc(-c2cccc(C)n2)n1.Cc1cccc(-c2cccc(C)n2)n1.F[P-](F)(F)(F)(F)F.F[P-](F)(F)(F)(F)F.[Ru+2].c1ccc2c(c1)Cc1cc(-c3nc4c5cccnc5c5ncccc5c4[nH]3)ccc1-2`, the EC50 was 22.4 ± 0.4 µM (SK-MEL-28; cell viability; dark, 1% O2).
For `COC(=O)c1cc(NC2=NC(=O)C(=Cc3ccc(N(C)C)cc3)S2)ccc1OC(C)=O`, the fold change was 0.196 (MCF7; refers to: POLA1 mRNA; 0.81 µM (IC50), 24 h; baseline: DMSO).
`Fc1cncc(-c2ccc3[nH]c4ncnc(N[C@H]5CC[C@H](N6CCOCC6)CC5)c4c3c2)c1` gave a GI50 of 8.7 µM (U2932; cell growth or viability, WST-1; 72 h).
With `Cc1[nH][n+]([Pt-2]([Cl])([n+]2[nH]c(C)c(CSCc3ccccc3)c2C)[n+]2[nH]c(C)c(CSCc3ccccc3)c2C)c(C)c1CSCc1ccccc1.[Cl-]` the selectivity index was 6.7 (Jurkat; cytotoxicity; baseline: IC50 HEK293 over IC50 Jurkat).
`CC(C)c1ccc(N(C)c2ccc3c(c2)OCC[C@H]3CNc2cnccc2C(=O)O)cc1` gave an IC50 of 0.0633 µM (SW1710; cell growth or viability, ATP luminescence; 7 days).
For `CN1CCN(C(=O)c2ccc(-c3cc4c(N5CCC[C@H](C(=O)NCc6ccc(OC(F)(F)F)cc6)C5)ncnc4[nH]3)cc2)CC1`, the inhibition was 27.5% (NCI-H3122; cell growth or viability, MTT; 0.04 µg/mL, 72 h).
`CSCC[C@H](NC(=O)[C@H](CCC(N)=O)NC(=O)[C@H](CCCCN)NC(=O)[C@H](CCCNC(=N)N)NC(=O)[C@H](Cc1ccc(O)cc1)NC(=O)[C@H](CCCNC(=N)N)NC(=O)[C@H](CO)NC(=O)[C@H](Cc1ccc(O)cc1)NC(=O)[C@H](CO)NC(=O)[C@H](CC(=O)O)NC(=O)[C@@H](NC(=O)[C@@H](N)Cc1ccccc1)[C@@H](C)O)C(=O)N[C@@H](C)C(=O)N[C@H](C(=O)N[C@@H](CCCCN)C(=O)N[C@@H](CCCCn1cc(C[C@H](NC(=O)CNC(=O)[C@H](CO)NC(=O)[C@H](CCCNC(=N)N)NC(=O)[C@H](CO)NC(=O)[C@H](CC(C)C)NC(=O)[C@H](CC(C)C)NC(=O)CNC(=O)[C@H](C)NC(=O)[C@H](CC(C)C)NC(=O)[C@H](CCCNC(=N)N)NC(=O)[C@H](Cc2c[nH]cn2)NC(=O)[C@@H](NC(=O)[C@@H](N)C(C)C)[C@@H](C)O)C(=O)N[C@H](C(=O)N[C@H](C(=O)N[C@@H](CCCCN)C(=O)N[C@@H](CC(N)=O)C(=O)N[C@@H](CC(N)=O)C(=O)N[C@@H](Cc2ccccc2)C(=O)N[C@H](C(=O)N2CCC[C@H]2C(=O)N[C@H](C(=O)N[C@@H](CC(N)=O)C(=O)N[C@H](C(=O)NCC(=O)N[C@@H](CO)C(=O)N[C@@H](CCCCN)C(=O)N[C@@H](C)C(=O)N[C@@H](Cc2ccccc2)C(N)=O)C(C)C)[C@@H](C)O)C(C)C)C(C)C)C(C)C)nn1)C(=O)N[C@@H](Cc1ccc(O)cc1)C(=O)N[C@@H](CC(C)C)C(=O)N[C@@H](C)C(=O)N[C@@H](C)C(=O)N[C@H](C(=O)N[C@@H](CC(C)C)C(=O)NCC(=O)N[C@@H](CCCCN)C(=O)N[C@@H](CCCNC(=N)N)C(=O)N[C@@H](Cc1ccc(O)cc1)C(=O)N[C@@H](CCCCN)C(=O)N[C@@H](CCC(N)=O)C(=O)N[C@@H](CCCNC(=N)N)C(=O)N[C@H](C(=O)N[C@@H](CCCCN)C(=O)N[C@@H](CC(N)=O)C(=O)N[C@@H](CCCCN)C(N)=O)C(C)C)C(C)C)C(C)C` has an A2 of 4.9 µM (transfected COS-7 cells; cAMP accumulation, antagonist; with: PACAP-27).
`COc1ccc2c(c1)c(CC(=O)[Se]CC(=O)Nc1cccc(C(F)(F)F)c1)c(C)n2C(=O)c1ccc(Cl)cc1` gave a TGI of 4.25 µM (NCI60 breast subpanel mean; cell growth).
For `N#Cc1cccc(/C=C/C(=O)c2ccc(O)cc2)c1`, the fold change was 0.027 (U-87 MG; refers to: ARHGAP22; concentration not given; baseline: untreated).
With `CSC(=S)N/N=C(\C)c1ccc(Nc2nnc(-c3ccc(Cl)cc3)c3ccccc23)cc1` the cell death was 0.909% (HepG2; cell growth or viability, MTT; 78 nM).
For `CC1(C)CC[C@@]2(CO)C(=C3C=C[C@@H]4[C@@]5(C)CC[C@H](O)[C@@](C)(CO)[C@@H]5CC[C@@]4(C)[C@]3(C)C[C@@H]2O)C1`, the protein level was 0.38 and 0.221 and 0.531 (HepG2, negative control siRNA; Western blot, refers to: phospho-mTOR; concentration not given, high dose, unit not given, with: ethanol; baseline: β-actin).
For `O=C(C[Se]C(=O)c1ccccc1Nc1cccc(C(F)(F)F)c1)Nc1cccc(C(F)(F)F)c1`, “mean growth percent” read -84.6% (NCI60 prostate subpanel (PC-3, DU-145); cell growth; 10 µM, 48 h, one-dose).
`C#CCOC(=O)[C@@]1(C)C=C(C(=O)Nc2cccc(C(=O)Nc3ccc(C)c(Nc4nccc(-c5cccnc5)n4)c3)c2)C(=O)CC1` has a phospho-c-Jun level of 0.815 (SH-SY5Y MKK7 active; western blot, refers to: phospho-c-Jun Ser73; 0.3 µM, unit not given; baseline: doxycycline without inhibitor).
`COc1cc(N2CCN(C(=O)C3CCCN3)CC2)ccc1Nc1ncc(Cl)c(Nc2ccccc2P(C)(C)=O)n1` (stereo not drawn): “cells in S phase” 7.8% (NCI-H3122; flow cytometry; 500 nM, 24 h).
`CN(C)C(=O)c1cc2cnc(Nc3ccc(N4CCNCC4)cn3)nc2n1C1CCCC1` — result for “peak intracellular calcium”: 290 ± 9.56 nM (human neutrophils; Fluo-3/AM fluorescence; 10 µM, with: fMLF 0.1 µM).
With `O=C(C[Se]C(=O)c1cccnc1Nc1cccc(C(F)(F)F)c1)Nc1cccc(C(F)(F)F)c1` the mean TGI was 3.58 µM (NCI60 prostate subpanel (PC-3, DU-145); total growth inhibition, inhibitor; five-dose).
For `CCCCCCc1cccc(C(O)CC(CO)NC(=O)CCCCCCCCCCNC(C)=O)c1` (stereo not drawn), the sphingomyelin level was 33700 pmol/sample and 23500 pmol/sample and 29100 pmol/sample (HeLa; CERT activity, HPLC-MS/MS lipidomics, refers to: sphingomyelin 22; 1 µM, 24 h, not cell-number normalised).
`Cc1ncsc1-c1ccc(C(C)NC(=O)C2CC(O)CN2C(=O)C(NC(=O)CCCCCCCCCCN2CCCC(Nc3ncc(Cl)c(Nc4ccccc4S(=O)(=O)C(C)C)n3)C2)C(C)(C)C)cc1` (stereo not drawn): “log2 fold change” -1.67 (22Rv1; RNA-seq, refers to: SSTR5 mRNA; concentration not given; baseline: DMSO).
`CN1CCCNC(=O)c2cccc(c2)C(=O)NCCCN(C)CCCNc2cccc3c2C(=O)c2cccc(c2C3=O)NCCC1` — result for “log2 fold change”: -0.831 (SAS; RNA-Seq, refers to: SMC5 mRNA; 1 µM, 6 h; baseline: untreated cells).
For `Cc1cc(Cl)cc(-c2ccnc3cc(CN4C(=O)C5C(C4=O)C5(C)C)sc23)c1C[C@@H]1CNCCO1` (stereo partly drawn), “Annexin V-negative PI-positive cells” read 2.36% and 3.37% and 2.3% (CHP-212 parental; Annexin V-PI flow cytometry; 0.3 µM, 48 h; baseline: cells).
For `CCN(CC)CC(=O)Nc1cccc(-n2cc(-c3ccc4ccc(-c5cn(-c6cccc(NC(=O)CN(CC)CC)c6)nn5)cc4c3)nn2)c1`, the fold regulation was 1.19 (RCC4; PCR angiogenesis array, refers to: NRP1; 5 x IC50, 2 h, normoxia; baseline: untreated).
With `Cc1cccc(-c2cccc(C)n2)n1.Cc1cccc(-c2cccc(C)n2)n1.F[P-](F)(F)(F)(F)F.F[P-](F)(F)(F)(F)F.[Ru+2].c1cc2ccc3ccc(-c4nc5c6cccnc6c6ncccc6c5[nH]4)c4ccc(c1)c2c34` the phototoxicity index was 2 (SK-MEL-28; 1% O2, with: blue light 453 nm, 100 J/cm2; baseline: dark over light EC50).
With `CCOc1cncc(-c2ccc(NC(=O)C3(c4ccnc(NS(=O)(=O)C5CC5)n4)CCOCC3)nc2)n1` the IC50 was 10 µM (SK-HEP1; cell proliferation, CellTiter-Glo; 72 h).
`Cn1ncc2cc(-c3cncc(Cl)c3N3CCC4(CCNC4=O)CC3)ccc21`: “log2 fold change” -1.17 (LS174T; gene expression, microarray, refers to: GSDMA mRNA; concentration not given, 4 h; baseline: untreated cells).
The EC50 of `[Cl-].[Cl-].[Ru+2].c1ccc(-c2ccccn2)nc1.c1ccc(-c2ccccn2)nc1.c1ccc2cc3nc4c5cccnc5c5ncccc5c4nc3cc2c1` is reported as 0.612 ± 0.014 µM (SK-MEL-28; photocytotoxicity; light 633 nm, oxygen 18.5%).
For `COC1=C2CC(C)CC(OC)C(O)C(C)C=C(C)C(OC(N)=O)C(OC)C=CC=C(C)C(=O)NC(=CC1=O)C2=O` (stereo not drawn), “log fold change” read -0.505 (Rh30; ChIP-seq, refers to: H3K36me3 peak; concentration not given, BARD1 intron chr2:215588800-215611399; baseline: untreated control).
`CNS(=O)(=O)Nc1nccc(Cc2c(C)c3ccc(Oc4ncccc4F)cc3oc2=O)c1F` has an IC50 of 0.00451 µM (CL-40; cell viability, CellTiter-Glo; 7 days).
`O=C(N1CCCC1)n1cc(-c2ccc(-c3ccccc3)cc2)nn1` has an SILAC ratio of 0.88 (mouse T cells; N-terminal labelling proteomics, refers to: FBXO7 N-terminal peptides; 0.001 µM, 6 h; baseline: DMSO).
